Measured values collected from several papers.
A part holds a random share of what one study measured.

Set 1
Target: Histone acetyltransferase KAT6A, winged helix 2, GST fusion (KAT6A, Homo sapiens, UniProt Q92794, residues 85-181)
Method: protein binding microarray
Form: double-stranded DNA, one strand shown
Matrix: in vitro
Concentration: not given
Notes: 8-mer, flanks averaged, mean of 2 arrays, mostly near background
Reference: not given
Reading: higher = stronger binding
Quantity: E-score
Construct (chain): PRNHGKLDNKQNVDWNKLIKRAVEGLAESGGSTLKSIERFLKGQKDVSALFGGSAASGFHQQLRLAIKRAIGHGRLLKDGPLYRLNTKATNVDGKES
AATGAGGA: -0.136
AAAGTAGA: -0.0212
AGCTCGCG: 0.258
AGAGGGAA: -0.0534
ATTCCTGA: -0.0924
AAATGAGC: 0.126
CTACTTAA: -0.195
TATATGCA: -0.213
ATGCCTAC: -0.12
AGTGTCGA: 0.0476
CCGTTGCC: 0.0639
CCTTTCGA: -0.0313
ATATTCAC: -0.0595
AGTGTGTG: 0.152
ATATCGTA: -0.154
ACTGGGCA: 0.00746
AGAAGAAC: -0.122
AACTTAAC: 0.118

Set 2
Target: Interferon regulatory factor 5, full length, phosphomimetic (IRF5, Homo sapiens, UniProt Q13568-2, residues 1-514, S451D/S453D/S456D/S462D)
Method: protein-binding microarray
Form: double-stranded DNA, one strand shown
Matrix: in vitro
Concentration: 940 nM top
Notes: 60-bp whole probe
Together with: salmon DNA 0.4 mg/ml
Reference: random background probes
Reading: higher = stronger binding
Quantity: fitted relative affinity
Shared flanks, not repeated: GCCTAGCAC … GTCTTGATTCGCTTGACGCTGCTG
TCATCTCTAGAAATTCCCACTGTGCTA: 0.662 z-score
GACCAACTGGGGTTTCGAGACGTGCTA: 1.96 z-score
GACGATATCGGGACTGGAGATGTGCTA: -0.322 z-score
TTAGGTCTCGGTTTCGGTAAGTGCTAG: 8.85 z-score
TTCTACTTCTGTTTTTGCTTGTGCTAG: 1.16 z-score
GACGGACTGGGTATCGGGATGTGCTAG: 0.987 z-score
TTAGGTCTCCTTCTGCTTTAGTGCTAG: 0.532 z-score
GACGATTTCGGGATTGGAGACGTGCTA: 0.264 z-score
GACGGTATCCTTATCCTGAAGTGCTAG: 0.275 z-score
TTAGGACTGCTTATCCCTTAGTGCTAG: -0.441 z-score
TTAGATTCCGGGACTGGATTAGTGCTA: -0.312 z-score
GGTCATGTCTGTGTCACAGAGTGCTAG: -0.506 z-score
TGAGGACTGGGTCTCGGTTAGTGCTAG: 1.08 z-score
ACTAATTTTCATTTTCCAAAGTGCTAG: 1.4 z-score
TTAGGTCTTCTTTTCCTTTAGTGCTAG: 1.05 z-score

Set 3
Target: TAR DNA-binding protein 43, full length, His tag (TARDBP, Homo sapiens, UniProt Q13148, residues 1-414)
Method: RNA Bind-n-Seq
Form: RNA
Matrix: in vitro
Concentration: 20 nM
Notes: 6-mer, flanks averaged, single round
Together with: 150 mM LiCl
Reference: input library
Reading: higher = stronger binding
Quantity: 6-mer enrichment (R)
CUGUAU: 1.02
UAAAUG: 1
GCUUAG: 0.918
GGAUCU: 0.902
AUGAAG: 0.975
GCCCCA: 1.13
UACGCC: 0.896
AUACAC: 0.864

Further values, each from its own experiment
PhoQ, residues 284 288 289 292 302 303 TGYLSA
fold induction (PhoP, residues 12 14 15 18 19 AQCLL (Escherichia coli, UniProt P23836); Sort-seq, refers to: YFP reporter; E. coli; PhoQ-PhoP variant library, together with: 10 µM Mg2+; reference: high Mg2+ state, higher = stronger signaling): 1.98

Some of these lines once more (set 1):
AGCTCGCG: 0.258
ATGCCTAC: -0.12
AGAGGGAA: -0.0534
